# Results gathered from unrelated publications.
# Compare with care: the assays were run in different laboratories. Values joined by “and” are separate records of one study, mostly repeats; a detail may differ. ± marks the error that the study gave.
# Cell line: MDA-MB-231
Compound,assay,conditions,how to read,quantity,value
CC(=O)OC[C@H]1O[C@@H](n2cc(CSc3nc4ccccc4n3Cc3cn([C@@H]4O[C@H](COC(C)=O)[C@@H](OC(C)=O)C(OC(C)=O)[C@H]4OC(C)=O)nn3)nn2)[C@H](OC(C)=O)C(OC(C)=O)[C@@H]1OC(C)=O (stereo in doubt),MTT,31.3 ppm,,cytotoxicity,88.6%
CCc1c(C)c2ccc(OC(C)C)c(C)c2oc1=O,"cell growth or viability, MTT",62.5 µg/mL,,viability,24.5%
Oc1cccc(-c2cccc(O)n2)n1.[Cl-].[Cl-].[Ru+2].c1ccc(-c2ccnc3c2ccc2c(-c4ccccc4)ccnc23)cc1.c1ccc(-c2ccnc3c2ccc2c(-c4ccccc4)ccnc23)cc1,cell viability,,relative to: dark EC50 over light EC50,phototoxicity index,40
CCN(C(=O)c1cc(F)ccc1Oc1nncnc1N1CCC2(C1)CN([C@H](CCCN(C)CCOC)C(C)C)C2)C(C)C,cell growth or viability,72 h,,GI50,> 10 µM
C[C@@H]1CC[C@@H]([C@](O)(CNCc2ccc(F)cc2)COCc2ccccc2)[C@H](OCc2ccccc2)C1,"cell growth or viability, MTT","30 µM, 72 h",,inhibition,94.4%
COc1ccccc1-c1ccncc1C(=O)Nc1nnc(OCc2ccc(Cl)cc2)s1,,"0.1875 µM, single replicate",relative to: untreated,colony survival,90.7% and 103%
COc1ccc(CNC[C@@](O)(COCc2ccccc2)[C@@H]2CC[C@@H](C)C[C@H]2OCc2ccccc2)cc1,"cell growth or viability, MTT","10 µM, 72 h",,inhibition,96.5%
CCCNC(=O)[C@H]1O[C@@H]1C(=O)N[C@H](C(=O)N1CCC[C@H]1C(=O)OCC1=C2C(C)=CC(C)=[N+]2[B-](C)(C)n2c(C)cc(C)c21)[C@@H](C)CC,"cell viability, MTT","72 h, dark",,EC50,24 ± 3.3 µM
CCCc1cc2cc(-n3nc(CC)c4c3CC(C)(C)CC4=O)cc(N3CCC(O)CC3)c2c(=O)[nH]1,Western blot,"concentration not given, 24 h",,Hsp90α and Hsp90β levels,no effect
O=c1c(-c2cnn(-c3ccccc3)c2)c(C(F)(F)F)oc2c(O)c(O)ccc12,"apoptosis, flow cytometry",,,EC50,> 100 µM
COc1ccc(CNC[C@@](O)(COCc2ccc(F)cc2)[C@@H]2CC[C@@H](C)C[C@H]2OCc2ccc(F)cc2)cc1,"cell growth or viability, MTT","10 µM, 72 h",,inhibition,98.5%
CC(=O)[O][Pd][c]1cc(C)ccc1N1N=C(C)C(C)(C)C1=O.CC(=O)[O][Pd][c]1cc(C)ccc1N1N=C(C)C(C)(C)C1=O,JC-1 flow cytometry,"25 µM, 24 h",,cells with decreased ΔΨm,10.3 ± 1.03%
C[C@@H]1CC[C@@H]([C@@](O)(CNCc2ccc(F)cc2)COCc2ccc(F)cc2)[C@H](OCc2ccc(F)cc2)C1,"cell growth or viability, MTT","10 µM, 72 h",,inhibition,94.7%
CC(=O)[O][Pd][c]1ccccc1-n1nc(C)cc1C.CC(=O)[O][Pd][c]1ccccc1-n1nc(C)cc1C,FLICA flow cytometry,"25 µM, 24 h",,caspase-9 active cells,29.5 ± 1.9%
COc1ccc(COC[C@](O)(CNCc2ccc(F)cc2)[C@@H]2CC[C@@H](C)C[C@H]2OCc2ccc(OC)cc2)cc1,"cell growth or viability, MTT","10 µM, 72 h",,inhibition,95.8%
CC(=O)OCC1=C2C(C)=CC(C)=[N+]2[B-](C)(C)n2c(C)cc(C)c21,MTT,"50 µM, 4 h, light and dark",,cytotoxicity,not toxic
